Literature values, collected from citations in different studies.
± gives the spread as reported. *: point of attachment.

CCC1=C(O)c2c(oc(-c3csc4ccccc34)cc2=O)C(CC)(CC)C1=O
inhibition (Tubulin alpha-1B chain/TUBB2B (Bos taurus, UniProt P81947+Q6B856); concentration not given): 78%

CCOC(=O)c1ncn2c1CN(C)C(=O)c1cc(F)ccc1-2
efficacy (human GABAA α4β3γ2 receptor; modulator, two-electrode voltage clamp; Xenopus oocytes; saturating, added: GABA EC50; baseline: GABA response): 132 ± 6%

Cbz-Phe-Arg-{AMC} (Z-FR-AMC; Cbz = O=C(OCc1ccccc1)*; AMC = Cc1cc(=O)oc2cc(N*)ccc12)
Km (Chymotrypsinogen A, activated (alpha-chymotrypsin) (Bos taurus, UniProt P00766); substrate): 180 µM

O=c1c2nc(Br)n([C@@H]3O[C@@H]4COP(=O)(O)O[C@H]4[C@H]3O)c2nc2[nH]c(-c3ccccc3)cn12
Km or Ki (PDE1A; cyclic nucleotide hydrolysis, substrate or inhibitor, isothermal titration calorimetry): 2400 nM

C[C@]12CC[C@@H]3c4cc(C56CC7CC(CC(C7)C5)C6)c(O)cc4CC[C@H]3[C@@H]1CCC2=O
EC50 (HT-22; cell protection; added: glutamate 20 mM): 365 nM

C=C(O[C@@H]1C=C(C(=O)O)C=C[C@H]1O)C(=O)O
Km (ICS1 (Arabidopsis thaliana, UniProt Q9S7H8); substrate): 90 µM

CC(=O)[C@H]1CC[C@H]2[C@@H]3CCC4=CC(=O)CC[C@]4(C)[C@H]3CC[C@]12C
Km (CYP17A1 (Homo sapiens, UniProt P05093); 17alpha-hydroxylation, substrate): 10.5 ± 1.7 µM

Cc1ccccc1-c1cc(N2CCN(C)CC2)ncc1N(C)C(=O)C(C)(C)c1cc(C(F)(F)F)cc(C(F)(F)F)c1
Vz/F (patients, plasma; oral, dose not given, netupitant-palonosetron combination, added: etoposide 35 to 100 mg/m^2 IV): 1860 L

O=C1c2ccccc2-c2c1c1ccc([N+](=O)[O-])cc1c(=O)n2CCCn1ccnc1
GI50 (renal SN12C; cell growth): 15 nM

CC[C@H](C)[C@H](NC(=O)[C@H](CCCCN)NC(=O)[C@H](Cc1c[nH]cn1)NC(=O)[C@@H](N)CCCNC(=N)N)C(=O)N[C@@H](CC(C)C)C(=O)N[C@@H](Cc1c[nH]cn1)C(=O)N[C@@H](CCCNC(=N)N)C(=O)N[C@@H](CC(C)C)C(=O)N[C@@H](CC(C)C)C(=O)N[C@@H](CCC(N)=O)C(=O)N[C@@H](CCC(=O)O)C(=O)NCC(=O)N[C@@H](CO)C(=O)O
binding stoichiometry (Nuclear receptor subfamily 1 group I member 3, with RXR (Mus musculus, UniProt O35627); ITC; concentration not given, pH 7.2, 25 °C): 1.03 ± 0.06

CNC(=O)[C@@]12C[C@@H]1[C@@H](n1cnc3c(NC)nc(C#Cc4ccc(Cl)s4)nc31)[C@H](O)[C@@H]2O
inhibition (ADORA2A (Homo sapiens, UniProt P29274); 10 µM): 24 ± 13%

O=c1[nH]c(=O)c2nc[nH]c2[nH]1
Km (Trypanosoma cruzi HGPRT isoform C; enzyme activity, substrate; added: PRPP 1 mM): 150 ± 10 µM

Nc1nc2c(nc(Br)n2[C@@H]2O[C@@H]3COP(=O)(O)O[C@H]3[C@H]2O)c(=O)[nH]1
Km or Ki (PDE10; cyclic nucleotide hydrolysis, substrate or inhibitor, isothermal titration calorimetry): 23700 nM

CC(=O)N(Cc1ccccc1O[11CH3])c1cnccc1Oc1ccccc1
specific binding VS (TSPO; rhesus monkey cerebellum; concentration not given): 95.5 mL/cm³

CCc1nc(N)nc(N)c1-c1ccc(Cl)cc1
selectivity ratio (dihydrofolate reductase; baseline: mammalian over Plasmodium enzyme): 1000

CC(=O)c1cccc(N[C@H]2[C@H](N)[C@@](NC(=O)N(C)C)([C@H](C)O)[C@@](C)(O)[C@@]2(O)COC(=O)c2c(C)cccc2O)c1
GI50 (M14): 120 nM

COc1ccc(/C=C\c2cc(OC)c(OC)c(OC)c2)cc1O
inhibition (tubulin; [3H]colchicine binding, inhibitor; 1.0 µM, added: 1.0 µM tubulin, 5.0 µM [3H]colchicine): 75 to 85%

Nc1ncnc2c1nc(Br)n2[C@@H]1O[C@@H]2COP(=O)(O)O[C@H]2[C@H]1O
Km or Ki (PDE1B; cyclic nucleotide hydrolysis, substrate or inhibitor, isothermal titration calorimetry): 63600 nM

O=C1c2ccccc2-c2c1c1ccc([N+](=O)[O-])cc1c(=O)n2C[C@H](O)CO
GI50 (melanoma UACC-62; cell growth): 98 nM

O=c1ccn([C@@H]2O[C@H](CO)[C@@H](O)[C@H]2O)c(=O)[nH]1
Km (nucleoside transporter U2; Trypanosoma brucei, procyclic forms): 4.1 ± 2.1 µM

C=CC1=C(C)/C(=C/c2[nH]c(Cc3[nH]c(/C=C4\NC(=O)C(C)=C4C=C)c(C)c3CCC(=O)O)c(CCC(=O)O)c2C)NC1=O
Km (UGT1A1 (Homo sapiens, UniProt P22309); glucuronidation, substrate): 0.2 to 26 µM

Nc1nc2nc[nH]c2c(=O)[nH]1
Km (Trypanosoma cruzi HGPRT isoform C; enzyme activity, substrate; GMP formation, added: PRPP 1 mM): 14 ± 1 µM

[I-].[K+]
iodide influx (SLC4A1 (Homo sapiens, UniProt P02730); concentration not given, pH 7.2, 0 °C, citrate replacing chloride; baseline: chloride efflux): ≤ 12%

O=C(O)c1cc2cc(Br)ccc2oc1=O
inhibition (Ionotropic glutamate receptor NMDA 1/2D (Rattus norvegicus, UniProt P35439+Q62645); concentration not given): 100%

CNC(=O)c1cc(Oc2ccc(NC(=O)Nc3ccc(Cl)c(C(F)(F)F)c3)c(F)c2)ccn1
log2 fold change (hiPSC-derived cardiomyocytes; contractility; concentration not given, 72 h, at effective concentration; baseline: baseline): 0.84

N[C@@H](CCC(=O)O)C(=O)O
Km (vesicular glutamate transporter; substrate): 1000 to 3000 µM

CC(C)C[C@H](N)C(=O)O
EC50 (GLUD1 (Homo sapiens, UniProt P00367, H507Y); enzyme activity, activator; mutant enzyme, reductive amination): 470000 nM

COc1cc2c(Nc3ccc(Br)cc3F)ncnc2cc1OCC1CCN(C)CC1
lowest effective concentration (hiPSC-derived cardiomyocytes; contractility; 72 h): 5.68 µM

O=P(O)(O)O
Km (ADP-forming acetyl-CoA synthetase (Entamoeba histolytica, UniProt C4LUV9); substrate): 1770 ± 180 µM

Oc1ccc(/C=C/c2ccc3ccccc3c2)cc1O
emission maximum shift (Transthyretin, fibrils (TTR, Homo sapiens, UniProt P02766); fluorescence; baseline: native over misfolded protofibrillar TTR): > 100 nm

Nc1nc2c(ncn2[C@@H]2O[C@@H]3COP(=O)(O)O[C@H]3[C@H]2O)c(=O)[nH]1
Km or Ki (PDE5; cyclic nucleotide hydrolysis, substrate or inhibitor, isothermal titration calorimetry): 2010 nM

C[C@]12CC[C@@H]3c4ccc(O)cc4CC[C@H]3[C@@H]1CC[C@H]2O
EC50 (HT-22; cell protection; added: glutamate 20 mM): 5740 nM

O=C1c2cccc3c2[C@H](CCC3)CN1[C@@H]1CN2CCC1CC2
CL/F (patients, plasma; oral, dose not given, netupitant-palonosetron combination, added: etoposide 35 to 100 mg/m^2 IV): 10.8 L/h

NC(=O)c1ccc[n+]([C@@H]2O[C@H](COP(=O)([O-])OP(=O)(O)OC[C@H]3O[C@@H](n4cnc5c(N)ncnc54)[C@H](O)[C@@H]3O)[C@@H](O)[C@H]2O)c1
Kii (IMPDH2 (Homo sapiens, UniProt P12268); uncompetitive substrate inhibition; dinucleotide intercept constant): 0.59 mM

COc1ccc(C=CC(=O)c2c(O)cc(OC)cc2OC)cc1
effective concentration (NF-κB; reporter gene and DNA binding, inhibitor; added: TNFα): 320 µM

Nc1nc2c(nc(Sc3ccc(Cl)cc3)n2C2O[C@@H]3COP(=O)(O)O[C@H]3[C@H]2O)c(=O)[nH]1 (stereo in doubt)
Km or Ki (PDE1A; cyclic nucleotide hydrolysis, substrate or inhibitor, isothermal titration calorimetry): 16700 nM

O=P(O)(O)OC[C@H]1O[C@H](OP(=O)(O)OP(=O)(O)O)[C@H](O)[C@@H]1O
Km (Trypanosoma cruzi HGPRT isoform C; enzyme activity, substrate; IMP formation, added: hypoxanthine 100 µM): 39 ± 2 µM

CO[C@@H]1[C@@H]2OP(=O)(O)OC[C@H]2O[C@H]1n1c(Sc2ccc(Cl)cc2)nc2c(N)ncnc21
Km or Ki (PDE6; cyclic nucleotide hydrolysis, substrate or inhibitor, isothermal titration calorimetry): 3510 nM

NC(=O)c1ccc[n+]([C@@H]2O[C@H](COP(=O)([O-])OP(=O)(O)OC[C@H]3O[C@@H](n4cnc5c(N)ncnc54)[C@H](O)[C@@H]3O)[C@@H](O)[C@H]2O)c1
Km (human SARM1 TIR domain; substrate, LC-MS): 24 µM

For quick reference, copied from above:
Nc1nc2c(nc(Sc3ccc(Cl)cc3)n2C2O[C@@H]3COP(=O)(O)O[C@H]3[C@H]2O)c(=O)[nH]1 (stereo in doubt)
Km or Ki (PDE1A; cyclic nucleotide hydrolysis, substrate or inhibitor, isothermal titration calorimetry): 16700 nM

Nc1ncnc2c1nc(Br)n2[C@@H]1O[C@@H]2COP(=O)(O)O[C@H]2[C@H]1O
Km or Ki (PDE1B; cyclic nucleotide hydrolysis, substrate or inhibitor, isothermal titration calorimetry): 63600 nM

CC(=O)c1cccc(N[C@H]2[C@H](N)[C@@](NC(=O)N(C)C)([C@H](C)O)[C@@](C)(O)[C@@]2(O)COC(=O)c2c(C)cccc2O)c1
GI50 (M14): 120 nM

NC(=O)c1ccc[n+]([C@@H]2O[C@H](COP(=O)([O-])OP(=O)(O)OC[C@H]3O[C@@H](n4cnc5c(N)ncnc54)[C@H](O)[C@@H]3O)[C@@H](O)[C@H]2O)c1
Kii (IMPDH2 (Homo sapiens, UniProt P12268); uncompetitive substrate inhibition; dinucleotide intercept constant): 0.59 mM

CC(=O)N(Cc1ccccc1O[11CH3])c1cnccc1Oc1ccccc1
specific binding VS (TSPO; rhesus monkey cerebellum; concentration not given): 95.5 mL/cm³
